Assay results collected from several papers.
Protocols differ between the studies behind these lines.

Compound	host	matrix	route	dose	notes	AUC(0-t)
CNC(=O)c1ccc(-c2cnc3ncc(Cc4ccc5ncccc5c4)n3n2)cc1F	human	plasma	oral	250 mg twice daily	multiple doses, steady state, patients	7070 ng·h/mL
CCOc1ccc(Cc2cc([C@@H]3S[C@H](CO)[C@@H](O)[C@H](O)[C@H]3O)c(OC)cc2C)cc1	human	plasma	oral	9 mg	single dose, fasted, healthy volunteers	2960 ng·h/mL
O=C(c1nc2n(n1)[C@H](c1ccccc1)C[C@@H]2F)C1CC1	human	plasma	oral	75 mg	single dose, fasted, healthy volunteers	9820 ng·h/mL
CC[C@@H]1C(=O)N(C)c2cnc(Nc3ccc(C(=O)N[C@H]4CC[C@H](N5CCN(CC6CC6)CC5)CC4)cc3OC)nc2N1C(C)C	human	plasma	intravenous	50 mg	patients, infusion	590 ng·h/mL
CCCOc1ccc([C@H]2CNC(=O)N2c2ccc3[nH]cnc3c2)cc1	human	plasma	oral	200 mg	single dose, fasted	1340 ng·h/mL
CCCCCN1C[C@H](O)[C@@H](O)[C@H](O)[C@@H]1CO	human	plasma	oral	100 mg	single dose, fasted, healthy volunteers	3950 ng·h/mL
CS(=O)(=O)n1cc2c(n1)CN([C@H]1CO[C@H](c3cc(F)ccc3F)[C@@H](N)C1)C2	male human	plasma	oral	5 mg	single dose, fasted, healthy volunteers	4.1 µM·h
CC(C)(Sc1ccncc1-c1ccc(C#N)c2ccccc12)C(=O)O	male human	plasma	oral	2.5 mg	single dose, fasted	23.2 ng·h/mL
O=C(NCCN1CCCC1)c1cc(-c2ccc(CN3CCOCC3)cc2)nc2ccc(F)cc12	human	blood	oral	50 mg	single dose, whole blood	475 ng·h/mL
CS(=O)(=O)n1cc2c(n1)CN([C@H]1CO[C@H](c3cc(F)ccc3F)[C@@H](N)C1)C2	male human	plasma	oral	50 mg	single dose, fasted	48.7 µM·h

Some of these lines once more:
Compound	host	matrix	route	dose	notes	AUC(0-t)
CCCCCN1C[C@H](O)[C@@H](O)[C@H](O)[C@@H]1CO	human	plasma	oral	100 mg	single dose, fasted, healthy volunteers	3950 ng·h/mL
